# Published values from different studies.
# Each line is one published result; not all experiments were run side by side. pIC50: −log10 of the molar value.
Compound,test,conditions,endpoint,value
Cc1noc(NS(=O)(=O)c2ccc(N=NN(O)c3ccccc3)cc2)c1C,"DPPH scavenging, absorbance",300 µg/mL,inhibition,30.8%
CCCCCCCCCCCCCCCCCC1NCCc2cc(O)c(O)cc21 (stereo not shown),ABTS scavenging,"10 min, dark",pIC50,4.61
COc1cc(-c2nc3ccccc3c(=O)n2Nc2ccc([N+](=O)[O-])cc2[N+](=O)[O-])ccc1OCc1cn(CC(=O)Nc2cccc(Cl)c2)nn1,"DPPH scavenging, absorbance",100 µM,inhibition,24.1%
CCCCCC1NCCc2cc(O)c(O)cc21 (stereo not shown),ABTS scavenging,"10 min, dark",pIC50,4.28
CCN(O)N=Nc1ccc(S(=O)(=O)Nc2cc(C)on2)cc1,"DPPH scavenging, absorbance",120 µg/mL,inhibition,28.6%
CCCCCCCCCCCCCCCC1NCCc2cc(O)c(O)cc21 (stereo not shown),ABTS scavenging,"10 min, dark",pIC50,4.44
Cc1noc(NS(=O)(=O)c2ccc(N=NN(C)O)cc2)c1C,"DPPH scavenging, absorbance",240 µg/mL,inhibition,24.4%
COc1cc(-c2nc3ccccc3c(=O)n2Nc2ccc([N+](=O)[O-])cc2[N+](=O)[O-])ccc1OCc1cn(CC(=O)Nc2ccc(Cl)cc2)nn1,"DPPH scavenging, absorbance",100 µM,inhibition,11.8%
O=C1O[C@H]([C@@H](O)CO)C(O)=C1O,DPPH scavenging,250 µg/mL,inhibition,62.1%
CCc1ccc(NC(=O)Cn2cc(COc3ccc(-c4nc5ccccc5c(=O)n4Nc4ccc([N+](=O)[O-])cc4[N+](=O)[O-])cc3OC)nn2)cc1,"DPPH scavenging, absorbance",100 µM,inhibition,14.9%
Cc1cc(NS(=O)(=O)c2ccc(N=NN(C)O)cc2)no1,"DPPH scavenging, absorbance",180 µg/mL,inhibition,37.1%
COc1cc(C2NCCc3cc(O)c(O)cc32)cc(OC)c1O (stereo not shown),ABTS scavenging,"10 min, dark",pIC50,5.19
COc1cc(-c2nc3ccccc3c(=O)n2Nc2ccc([N+](=O)[O-])cc2[N+](=O)[O-])ccc1OCc1cn(CC(=O)Nc2ccc(Br)cc2)nn1,"DPPH scavenging, absorbance",100 µM,inhibition,14.9%

# Some of these lines once more:
Compound,test,conditions,endpoint,value
Cc1noc(NS(=O)(=O)c2ccc(N=NN(O)c3ccccc3)cc2)c1C,"DPPH scavenging, absorbance",300 µg/mL,inhibition,30.8%
